Experimental data gathered from unrelated publications.
Numbered parts are unrelated; each lists some results of a single study.
Sequence of UniProt P07949 (whole entry, looked up): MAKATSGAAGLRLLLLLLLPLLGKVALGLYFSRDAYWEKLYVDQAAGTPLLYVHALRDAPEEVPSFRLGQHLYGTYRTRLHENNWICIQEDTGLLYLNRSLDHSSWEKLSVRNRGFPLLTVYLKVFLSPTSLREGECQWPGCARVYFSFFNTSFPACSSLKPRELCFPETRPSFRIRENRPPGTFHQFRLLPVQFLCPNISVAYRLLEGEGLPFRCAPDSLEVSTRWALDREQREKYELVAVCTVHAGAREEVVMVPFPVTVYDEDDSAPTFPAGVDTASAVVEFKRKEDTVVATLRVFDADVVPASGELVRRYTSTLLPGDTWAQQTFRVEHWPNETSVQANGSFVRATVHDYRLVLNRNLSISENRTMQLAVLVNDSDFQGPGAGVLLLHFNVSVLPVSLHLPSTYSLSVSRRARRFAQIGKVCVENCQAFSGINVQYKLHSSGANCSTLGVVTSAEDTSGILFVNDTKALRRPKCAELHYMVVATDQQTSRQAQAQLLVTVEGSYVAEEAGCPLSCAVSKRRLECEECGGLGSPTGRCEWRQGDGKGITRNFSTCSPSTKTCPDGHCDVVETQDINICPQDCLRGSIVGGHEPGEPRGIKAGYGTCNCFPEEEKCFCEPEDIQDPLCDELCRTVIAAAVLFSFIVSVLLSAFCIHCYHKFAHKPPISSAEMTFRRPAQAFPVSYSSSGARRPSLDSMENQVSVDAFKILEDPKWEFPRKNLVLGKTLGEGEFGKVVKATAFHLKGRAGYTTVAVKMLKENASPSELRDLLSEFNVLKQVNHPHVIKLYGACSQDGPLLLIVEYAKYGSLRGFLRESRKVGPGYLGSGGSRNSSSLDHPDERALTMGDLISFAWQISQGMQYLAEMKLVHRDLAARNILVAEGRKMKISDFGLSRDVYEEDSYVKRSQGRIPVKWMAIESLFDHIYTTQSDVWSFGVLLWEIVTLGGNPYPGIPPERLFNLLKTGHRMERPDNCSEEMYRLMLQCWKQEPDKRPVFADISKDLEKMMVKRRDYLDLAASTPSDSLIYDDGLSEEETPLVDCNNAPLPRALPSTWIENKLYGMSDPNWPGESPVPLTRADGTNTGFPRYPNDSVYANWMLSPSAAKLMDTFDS
Sequence of UniProt Q96NX5 (whole entry, looked up): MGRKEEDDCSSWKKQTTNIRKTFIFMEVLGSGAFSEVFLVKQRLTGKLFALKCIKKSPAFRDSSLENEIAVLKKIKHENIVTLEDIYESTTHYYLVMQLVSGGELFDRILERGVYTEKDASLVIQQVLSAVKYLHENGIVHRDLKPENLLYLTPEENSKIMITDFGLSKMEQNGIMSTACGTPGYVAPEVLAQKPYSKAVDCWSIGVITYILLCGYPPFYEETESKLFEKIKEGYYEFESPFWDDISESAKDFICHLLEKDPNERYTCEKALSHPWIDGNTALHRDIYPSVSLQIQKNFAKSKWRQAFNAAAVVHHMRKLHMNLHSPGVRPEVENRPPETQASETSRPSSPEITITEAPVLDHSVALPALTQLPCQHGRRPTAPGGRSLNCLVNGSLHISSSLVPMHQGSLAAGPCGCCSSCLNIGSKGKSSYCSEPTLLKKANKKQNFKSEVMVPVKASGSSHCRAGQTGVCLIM
Sequence of UniProt Q8IU85 (whole entry, looked up): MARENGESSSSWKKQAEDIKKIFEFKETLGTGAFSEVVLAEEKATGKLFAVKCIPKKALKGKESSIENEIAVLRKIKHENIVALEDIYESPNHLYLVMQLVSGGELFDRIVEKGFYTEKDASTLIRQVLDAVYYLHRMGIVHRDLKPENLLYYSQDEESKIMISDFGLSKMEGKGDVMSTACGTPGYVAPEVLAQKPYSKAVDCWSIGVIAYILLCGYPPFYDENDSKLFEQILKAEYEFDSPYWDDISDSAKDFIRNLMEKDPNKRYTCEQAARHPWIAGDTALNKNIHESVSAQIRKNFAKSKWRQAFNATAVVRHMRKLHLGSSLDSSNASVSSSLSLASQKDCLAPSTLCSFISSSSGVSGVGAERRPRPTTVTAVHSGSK
Sequence of UniProt Q14289 (whole entry, looked up): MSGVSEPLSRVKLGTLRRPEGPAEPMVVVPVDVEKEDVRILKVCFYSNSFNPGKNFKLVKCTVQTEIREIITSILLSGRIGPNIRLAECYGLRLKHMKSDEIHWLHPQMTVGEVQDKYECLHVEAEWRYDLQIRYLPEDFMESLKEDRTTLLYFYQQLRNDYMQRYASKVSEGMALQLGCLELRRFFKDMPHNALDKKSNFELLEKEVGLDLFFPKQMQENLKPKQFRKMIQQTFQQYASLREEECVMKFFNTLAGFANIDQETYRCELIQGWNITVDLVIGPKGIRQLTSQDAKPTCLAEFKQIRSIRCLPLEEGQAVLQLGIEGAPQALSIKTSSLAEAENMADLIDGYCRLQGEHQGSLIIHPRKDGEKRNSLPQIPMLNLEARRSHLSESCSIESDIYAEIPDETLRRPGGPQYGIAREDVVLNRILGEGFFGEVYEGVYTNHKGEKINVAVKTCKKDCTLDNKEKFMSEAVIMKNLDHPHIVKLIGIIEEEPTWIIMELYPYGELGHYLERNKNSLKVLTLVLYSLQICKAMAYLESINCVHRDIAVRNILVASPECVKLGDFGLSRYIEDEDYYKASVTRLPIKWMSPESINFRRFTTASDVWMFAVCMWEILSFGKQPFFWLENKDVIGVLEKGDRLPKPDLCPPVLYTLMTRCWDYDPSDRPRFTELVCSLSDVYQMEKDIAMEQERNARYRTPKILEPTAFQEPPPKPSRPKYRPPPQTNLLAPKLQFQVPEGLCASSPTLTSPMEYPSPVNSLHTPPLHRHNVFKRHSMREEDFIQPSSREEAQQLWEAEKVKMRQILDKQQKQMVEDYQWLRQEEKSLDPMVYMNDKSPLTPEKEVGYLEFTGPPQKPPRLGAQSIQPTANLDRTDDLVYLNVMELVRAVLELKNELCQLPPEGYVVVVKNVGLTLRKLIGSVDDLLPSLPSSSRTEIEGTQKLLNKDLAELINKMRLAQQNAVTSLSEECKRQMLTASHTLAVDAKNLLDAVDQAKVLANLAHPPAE
Sequence of UniProt Q9NR20 (whole entry, looked up): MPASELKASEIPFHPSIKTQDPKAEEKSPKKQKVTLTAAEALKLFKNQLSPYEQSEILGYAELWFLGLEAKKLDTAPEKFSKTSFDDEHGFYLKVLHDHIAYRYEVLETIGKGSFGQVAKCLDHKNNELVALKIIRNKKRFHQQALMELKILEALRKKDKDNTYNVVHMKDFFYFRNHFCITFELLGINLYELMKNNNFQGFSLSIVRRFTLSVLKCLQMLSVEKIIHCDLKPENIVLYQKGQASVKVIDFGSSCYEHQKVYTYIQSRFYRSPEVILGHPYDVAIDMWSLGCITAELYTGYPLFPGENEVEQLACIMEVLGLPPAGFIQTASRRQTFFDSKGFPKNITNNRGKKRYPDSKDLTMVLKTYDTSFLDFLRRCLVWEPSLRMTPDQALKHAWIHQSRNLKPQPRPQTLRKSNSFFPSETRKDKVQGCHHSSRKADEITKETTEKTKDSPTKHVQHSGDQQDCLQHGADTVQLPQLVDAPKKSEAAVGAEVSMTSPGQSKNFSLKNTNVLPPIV
Sequence of UniProt Q16513 (whole entry, looked up): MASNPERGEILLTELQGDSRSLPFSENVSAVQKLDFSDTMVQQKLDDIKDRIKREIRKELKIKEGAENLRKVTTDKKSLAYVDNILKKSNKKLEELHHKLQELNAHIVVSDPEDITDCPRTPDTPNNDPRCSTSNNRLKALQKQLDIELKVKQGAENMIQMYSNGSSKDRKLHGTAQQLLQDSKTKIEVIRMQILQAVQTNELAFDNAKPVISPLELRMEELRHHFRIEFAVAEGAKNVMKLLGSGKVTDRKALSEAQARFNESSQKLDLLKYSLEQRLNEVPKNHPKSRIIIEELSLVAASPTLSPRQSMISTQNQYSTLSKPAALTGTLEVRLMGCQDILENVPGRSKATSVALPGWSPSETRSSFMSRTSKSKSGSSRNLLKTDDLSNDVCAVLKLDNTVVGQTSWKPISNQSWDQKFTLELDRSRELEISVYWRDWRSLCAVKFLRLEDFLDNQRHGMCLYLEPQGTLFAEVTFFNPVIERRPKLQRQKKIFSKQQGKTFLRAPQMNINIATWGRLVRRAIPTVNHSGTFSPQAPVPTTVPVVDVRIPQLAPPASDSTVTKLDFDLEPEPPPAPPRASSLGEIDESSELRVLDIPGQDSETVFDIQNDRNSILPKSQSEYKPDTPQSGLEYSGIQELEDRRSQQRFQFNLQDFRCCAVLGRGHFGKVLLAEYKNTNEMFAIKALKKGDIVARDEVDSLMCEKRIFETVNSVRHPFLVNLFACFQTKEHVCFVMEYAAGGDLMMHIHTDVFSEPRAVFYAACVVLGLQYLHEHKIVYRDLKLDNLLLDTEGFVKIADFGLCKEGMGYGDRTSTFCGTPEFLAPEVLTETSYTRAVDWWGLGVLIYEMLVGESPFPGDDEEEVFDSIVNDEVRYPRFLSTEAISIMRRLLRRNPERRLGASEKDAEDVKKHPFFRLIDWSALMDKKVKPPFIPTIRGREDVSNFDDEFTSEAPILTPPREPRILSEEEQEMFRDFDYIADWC

Block 1
Compound: COc1ccc2c(c[n+](C)c3c4cc5c(cc4ccc23)OCO5)c1OC
Observed: enzyme activity
Action: inhibitor
Concentration: 0.5 µM
Baseline: control
| target | remaining activity [%] |
| --- | --- |
| G protein-coupled receptor kinase 5 (GRK5, Homo sapiens, UniProt P34947) | 110 |
| Proto-oncogene tyrosine-protein kinase receptor Ret (RET, Homo sapiens, UniProt P07949) | 97 |
| Protein-tyrosine kinase 2-beta (PTK2B, Homo sapiens, UniProt Q14289) | 92.3 |
| Casein kinase II subunit alpha' (CSNK2A2, Homo sapiens, UniProt P19784) | 89.7 |
| Calcium/calmodulin-dependent protein kinase type 1D (CAMK1D, Homo sapiens, UniProt Q8IU85) | 105 |
| Dual specificity tyrosine-phosphorylation-regulated kinase 4 (DYRK4, Homo sapiens, UniProt Q9NR20) | 95.1 |
| Mitogen-activated protein kinase kinase kinase 2 (MAP3K2, Homo sapiens, UniProt Q9Y2U5) | 99.8 |
| Serine/threonine-protein kinase N2 (PKN2, Homo sapiens, UniProt Q16513) | 93.3 |
| Serine/threonine-protein kinase BRSK1 (BRSK1, Homo sapiens, UniProt Q8TDC3) | 90.8 |
| STE20-like serine/threonine-protein kinase (SLK, Homo sapiens, UniProt Q9H2G2) | 87.4 |
| Calcium/calmodulin-dependent protein kinase type 1G (CAMK1G, Homo sapiens, UniProt Q96NX5) | 100 |

Block 2
Cell line: mouse MPNST tumor cells
Technique: high-content nuclear imaging
Refers to: cell number
Concentration: 10 µM
Time: 12 h
Notes: mean of 2 replicates
Baseline: plate mean
Direction: higher = more cells
| SMILES | nuclei count [z-score] |
| --- | --- |
| NCC(O)c1ccc(O)cc1 (racemic) | 0.608 |
| O=C(Oc1ccc(Br)cc1)N1CCN2CCC1CC2 | 1.9 |
| C=CC[C@]1(O)CC[C@H]2[C@@H]3CCC4=CC(=O)CCC4=C3C=C[C@@]21C | -0.385 |
| CC(C)C[C@H](CN)CC(=O)O | 0.249 |
| CCCN(CCC)C1CCc2ccc(O)cc2C1 (stereo not drawn) | 2.33 |
| C#CCN(C)[C@H](C)Cc1ccccc1 | 0.318 |
| CN(C(=O)CN1C(=O)COc2cc(Cl)c(Cl)cc21)[C@@H](CN1CCCC1)c1ccc(-c2cccc(C(N)=O)c2)cc1 | -4.91 |
| CCOC(=O)c1ncc2[nH]c3ccc(OCc4ccccc4)cc3c2c1COC | -1.99 |

Block 3
Target: 5-hydroxytryptamine receptor 1A (HTR1A, Homo sapiens, UniProt P08908)
Sequence of UniProt P08908 (whole entry, looked up): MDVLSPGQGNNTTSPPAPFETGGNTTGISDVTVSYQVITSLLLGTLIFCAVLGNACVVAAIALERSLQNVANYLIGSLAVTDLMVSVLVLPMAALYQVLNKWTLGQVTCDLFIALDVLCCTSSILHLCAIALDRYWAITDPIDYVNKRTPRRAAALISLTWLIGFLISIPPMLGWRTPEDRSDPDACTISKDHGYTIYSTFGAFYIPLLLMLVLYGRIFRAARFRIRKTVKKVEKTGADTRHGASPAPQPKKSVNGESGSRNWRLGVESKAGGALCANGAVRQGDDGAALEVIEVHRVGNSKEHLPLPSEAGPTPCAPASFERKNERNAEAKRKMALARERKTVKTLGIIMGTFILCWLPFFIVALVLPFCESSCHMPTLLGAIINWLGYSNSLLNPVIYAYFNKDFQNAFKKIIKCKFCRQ
Observed: ligand displacement
Concentration: 10 µM
| SMILES | inhibition [%] |
| --- | --- |
| CN1CCN(C(=O)C(C)(C)c2ccc(C(=O)Nc3cn4cc(-c5cc(C(C)(C)C)cc(C(C)(C)C)c5)ccc4n3)cc2)CC1 | 51.3 |
| CC[C@H](CC(=O)O)n1c(=O)c2ncccc2n(Cc2cn(C)c3cc(C)cc(C)c23)c1=O | 8.83 |
| CCC(F)(F)c1cc(N2CCC(S(C)(=O)=O)CC2)nc2sc(C(N)=O)c(N)c12 | 14.4 |
| CN(C)c1ncnc(-c2ccc3nc(Nc4cc(CN5CCN(C(=O)CC(F)(F)F)CC5)ccn4)[nH]c3c2)c1Cl | 13.9 |
| Cc1c(N2CCNCC2)nc2ccc(Br)cc2c1C(=O)NC[C@H](CCC(=O)O)c1ccccc1Cl | 47.1 |
| Cc1cc(C)c(-n2ccn3nc(-c4cccnc4)cc23)cc1NC(=O)c1cc(C#N)cc(S(F)(F)(F)(F)F)c1 | -6.68 |
| O[C@]1(C(F)(F)F)CCCC[C@H]1Nc1ccc(F)cc1 | -1.95 |
| C[C@H](c1ccnc(Nc2nc3ccc(-c4cc(N(C)C)ncn4)cc3[nH]2)c1)N1CCN(C(=O)CC(F)(F)F)CC1 | 6.47 |
| CN1C(=O)[C@@H](N2CCc3cn(Cc4ccccc4)nc3C2=O)COc2ccccc21 | 5.07 |
| Nc1c(C(=O)NCc2ccc(C(=O)NCCCC3CCCCC3)cc2)cnn1-c1ccccc1 | -1.43 |
| CC(=O)Nc1ncc(CN2CCC[C@H](Cc3cc(C)nc(C)c3)C2)s1 | 22.2 |
| CC1=C(C#N)C(c2ccc3[nH]nc(C)c3c2)C(C#N)=C(C)N1 | -5.32 |
| Cc1ncc(-c2cc(Cl)ccc2F)cc1-n1c(=O)n(CC(N)=O)c2ccccc21 | 12 |
| COCc1nc2cnc3cc(-c4c(C)noc4C)c(OC[C@H]4CCNC4)cc3c2n1[C@H](C)c1ccccc1 | 15.3 |
| N#CC1(c2ccccn2)CCN(Cc2cc(C(=O)O)c(=O)n3ccccc23)CC1 | 21 |
| CNC(=O)Nc1ccc2c(c1)CC[C@]21OC(=O)N(CC(=O)N(Cc2ccc(F)cc2)[C@@H](C)C(F)(F)F)C1=O | 6.87 |
| CC1CCN(c2ccnc(NCc3cn(C)cn3)n2)CC1 | 30 |
| COc1cc(N[C@@H]2CCCC[C@]2(O)C(F)(F)F)ccc1F | 6.99 |
| c1ccc(C2CCN(c3cnc4c(N5CCOCC5)nccn34)CC2)cc1 | 25.7 |
| CN1CCN(c2ccnc(NCCc3ccccc3)n2)CC1 | 26.7 |
| CCOc1ccc(S(=O)(=O)Nc2ccc(Cl)cc2C#Cc2cnc(C(=O)O)cc2OC)c2ncccc12 | 18.6 |
| COc1cc(C(=O)O)ncc1C#Cc1ccccc1NS(=O)(=O)c1cccc2c(N(C)C)ccnc12 | 40.2 |
| O=C(NCCCC1CCCCC1)c1ccc(CNC(=O)c2cnn(-c3ccccc3)c2C(F)(F)F)cc1 | 20.1 |
| Nc1nc(NCc2ccccc2)nc(-c2cccc(CO)c2)n1 | 65.5 |
| Nc1nc(NCc2ccccc2)nc(-c2ccccc2CO)n1 | 9.7 |

Block 4
Organism: Sarcocystis neurona
Observed: parasite growth
Concentration: 10 µM
Baseline: untreated
| SMILES | log2 fold change |
| --- | --- |
| CC(C)CC(N(C)C)C1(c2ccc(Cl)cc2)CCC1.Cl (stereo not drawn) | 0.25 |
| Br.COc1ccc2c(c1)[C@]13CCCC[C@@H]1[C@H](C2)N(C)CC3 | 0.29 |
| Cl.Oc1cc2c(cc1O)[C@H]1c3ccccc3CN[C@@H]1CC2 | 0.44 |
| Cl.O=C1[C@H]2CCCC[C@H]2C(=O)N1CCCCN1CCN(c2nsc3ccccc23)CC1 | -2.39 |
| CN(C)C(=O)Oc1ccc[n+](C)c1.[Br-] | -0.0321 |
| COc1ccc2[nH]cc(CCN)c2c1 | 0.34 |
| C[C@]12CC[C@H]3[C@@H](CCC4=CC(=O)CC[C@@H]43)[C@@H]1CC[C@@H]2O | -0.09 |

For quick reference, copied from above (block 2):
| SMILES | nuclei count [z-score] |
| --- | --- |
| CCCN(CCC)C1CCc2ccc(O)cc2C1 (stereo not drawn) | 2.33 |
| C#CCN(C)[C@H](C)Cc1ccccc1 | 0.318 |
| CN(C(=O)CN1C(=O)COc2cc(Cl)c(Cl)cc21)[C@@H](CN1CCCC1)c1ccc(-c2cccc(C(N)=O)c2)cc1 | -4.91 |
